Earlier results, collected from citations in different studies.
Lines come from different studies, so protocols differ.

Protein sequences, listed by entry. Tags and fused reporters are not part of them.
UniProt P29476, whole entry: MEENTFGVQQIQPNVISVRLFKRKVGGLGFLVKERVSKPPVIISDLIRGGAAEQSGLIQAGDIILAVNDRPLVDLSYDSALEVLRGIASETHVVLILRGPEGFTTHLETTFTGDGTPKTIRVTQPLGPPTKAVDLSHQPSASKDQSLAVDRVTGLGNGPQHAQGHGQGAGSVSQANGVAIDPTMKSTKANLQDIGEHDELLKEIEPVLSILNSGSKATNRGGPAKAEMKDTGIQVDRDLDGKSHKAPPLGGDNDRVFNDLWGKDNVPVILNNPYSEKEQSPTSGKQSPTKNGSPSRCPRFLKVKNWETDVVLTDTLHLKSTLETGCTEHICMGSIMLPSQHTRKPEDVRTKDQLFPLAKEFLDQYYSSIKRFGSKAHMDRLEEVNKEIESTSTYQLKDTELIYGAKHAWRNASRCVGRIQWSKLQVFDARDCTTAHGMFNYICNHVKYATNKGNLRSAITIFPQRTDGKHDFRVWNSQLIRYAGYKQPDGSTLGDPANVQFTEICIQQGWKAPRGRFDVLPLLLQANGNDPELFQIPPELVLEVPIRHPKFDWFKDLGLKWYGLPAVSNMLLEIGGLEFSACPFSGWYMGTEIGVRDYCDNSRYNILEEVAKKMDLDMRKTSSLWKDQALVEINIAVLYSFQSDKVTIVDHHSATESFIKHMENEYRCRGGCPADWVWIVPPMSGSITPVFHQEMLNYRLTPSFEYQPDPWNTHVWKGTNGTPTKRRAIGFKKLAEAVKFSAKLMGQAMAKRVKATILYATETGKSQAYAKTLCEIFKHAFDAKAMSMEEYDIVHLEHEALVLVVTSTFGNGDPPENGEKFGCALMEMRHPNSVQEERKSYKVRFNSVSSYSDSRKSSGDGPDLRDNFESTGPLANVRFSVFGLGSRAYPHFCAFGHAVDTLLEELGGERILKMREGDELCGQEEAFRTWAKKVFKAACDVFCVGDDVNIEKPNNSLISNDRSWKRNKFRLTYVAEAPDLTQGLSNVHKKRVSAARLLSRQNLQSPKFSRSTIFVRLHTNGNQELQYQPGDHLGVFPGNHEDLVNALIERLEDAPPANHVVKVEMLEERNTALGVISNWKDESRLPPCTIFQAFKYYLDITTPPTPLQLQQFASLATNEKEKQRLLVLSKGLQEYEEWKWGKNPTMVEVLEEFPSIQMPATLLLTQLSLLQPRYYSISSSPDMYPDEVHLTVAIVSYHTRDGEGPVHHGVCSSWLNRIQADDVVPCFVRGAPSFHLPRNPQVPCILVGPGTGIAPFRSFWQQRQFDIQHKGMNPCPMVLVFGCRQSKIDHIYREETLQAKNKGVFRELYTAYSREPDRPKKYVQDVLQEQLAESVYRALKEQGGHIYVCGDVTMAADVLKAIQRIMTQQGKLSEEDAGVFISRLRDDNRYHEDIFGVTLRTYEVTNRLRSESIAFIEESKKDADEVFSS

SMILES | tested on | assay | test system | how to read | endpoint | value
O=C(Nc1ccc(-c2nc3ccccc3s2)cc1)C1CCN(S(=O)(=O)c2ccccc2Cl)CC1 |  |  | mouse liver microsomes |  | apparent intrinsic clearance | 123 µL/min/mg
Cc1cc(N)nc(CCc2cccc(C(O)Cc3cc(C)cc(N)n3)c2)c1 (stereo not shown) | Nos1 (Rattus norvegicus, UniProt P29476) |  |  | relative to: Ki bovine eNOS over Ki nNOS | selectivity ratio | 107
COc1cc(N2CCC(N3CCN(C)CC3)CC2)ccc1Nc1ncc(Cl)c(Nc2ccccc2NS(C)(=O)=O)n1 | Ba/F3 EGFR L858R/C797S | cell growth, inhibitor |  |  | IC50 | 183 nM
O=C(/C=C/c1nc2ccccc2[nH]1)c1c(-c2ccccc2)c2cc(Cl)ccc2[nH]c1=O | AKT | kinase activity, ATP-competitive inhibitor |  |  | IC50 | 2300 nM

For quick reference, copied from above:
SMILES | tested on | assay | test system | how to read | endpoint | value
O=C(Nc1ccc(-c2nc3ccccc3s2)cc1)C1CCN(S(=O)(=O)c2ccccc2Cl)CC1 |  |  | mouse liver microsomes |  | apparent intrinsic clearance | 123 µL/min/mg
